Results pooled from the literature.
± gives the spread as reported.
Organism: Enterococcus faecium

SMILES | test | test system | conditions | MIC
CN(C)c1cc(CNC(C)(C)C)c(O)c2c1C[C@H]1C[C@H]3[C@H](N(C)C)C(O)=C(C(N)=O)C(=O)[C@@]3(O)C(O)=C1C2=O | – | 494, Tet M and Tet L | – | 8 µg/mL
C[n+]1ccc(/C=C2\Sc3ccccc3N2CCCN2CCCC2)c2ccccc21 | microbial growth, broth dilution | ATCC49624 | – | 16 µg/mL
CN1/C(=C/C=C/c2cc(-c3ccccc3)cc(-c3ccccc3)[o+]2)C(C)(C)c2ccccc21 | microbial growth, broth dilution | VRE | – | 0.16 µg/mL
CNC(CC(C)C)C(=O)NC1C(=O)NC(CC(N)=O)C(=O)NC2C(=O)NC3C(=O)NC(C(=O)NC(C(=O)NCCCNC(=N)N)c4cc(O)cc(O)c4-c4cc3ccc4O)C(O)c3ccc(c(Cl)c3)Oc3cc2cc(c3OC2OC(CO)C(O)C(O)C2OC2CC(C)(N)C(O)C(C)O2)Oc2ccc(cc2Cl)C1O (stereo not shown) | – | ATCC BAA-2317 VanA | −NaH2PO4 | 4 µg/mL
CCn1[c]([Au-][Cl])[n+](CC)c2ccc(C(=O)OC)cc21 | broth dilution | DSM 20477 | 20 h, 37 °C | 11.5 ± 5 µM
CNCc1cc(N(C)C)c2c(c1O)C(=O)C1=C(O)[C@]3(O)C(=O)C(C(N)=O)=C(O)[C@@H](N(C)C)[C@@H]3C[C@@H]1C2 | – | 494, Tet M and Tet L | – | 8 µg/mL
CNC(CC(C)C)C(=O)NC1C(=O)NC(CC(N)=O)C(=O)NC2C(=O)NC3C(=O)NC(C(=O)NC(C(=O)NCCCNC(=N)N)c4cc(O)cc(O)c4-c4cc3ccc4O)C(O)c3ccc(c(Cl)c3)Oc3cc2cc(c3OC2OC(CO)C(O)C(O)C2OC2CC(C)(NCc3ccc(-c4ccc(Cl)cc4)cc3)C(O)C(C)O2)Oc2ccc(cc2Cl)C1O (stereo not shown) | – | ATCC BAA-2317 VanA | added: +NaH2PO4 100 µg/mL | 0.3 µg/mL
CN(C)c1cc(CN2CCCCCC2)c(O)c2c1C[C@H]1C[C@H]3[C@H](N(C)C)C(O)=C(C(N)=O)C(=O)[C@@]3(O)C(O)=C1C2=O | – | 494, Tet M and Tet L | – | 1 µg/mL
CNC(CC(C)C)C(=O)NC1C(=O)NC(CC(N)=O)C(=O)NC2C(=O)NC3C(=O)NC(C(=O)NC(C(=O)NCCNC(=N)N)c4cc(O)cc(O)c4-c4cc3ccc4O)C(O)c3ccc(c(Cl)c3)Oc3cc2cc(c3OC2OC(CO)C(O)C(O)C2OC2CC(C)(N)C(O)C(C)O2)Oc2ccc(cc2Cl)C1O (stereo not shown) | broth microdilution | ATCC BAA-2317 VanA | – | 4 µg/mL
CC(C)C[C@H](NC(=O)[C@H](CC(N)=O)NC(=O)[C@H](CCCNC(=N)N)NC(=O)[C@@H](CC(C)C)NC(=O)[C@H](Cc1ccc(-c2ccccc2)cc1)NC(=O)[C@H](CC(=O)O)NC(=O)[C@H](CCCCN)NC(=O)[C@@H](CC(C)C)NC(=O)[C@H](CCCNC(=N)N)NC(=O)[C@H](CCC(N)=O)NC(=O)[C@@H](NC(=O)[C@@H](CC(C)C)NC(=O)[C@H](CCCNC(=N)N)NC(=O)[C@H](CCCCN)NC(=O)[C@H](Cc1ccc(-c2ccccc2)cc1)NC(=O)CN)C(C)C)C(=O)N[C@H](C(N)=O)C(C)C | broth microdilution | ATCC 51559 | – | 3.1 µM
